Measured values gathered from unrelated publications.
Protocols differ between the studies behind these lines. Several values in a cell are separate wells, animals, samples, runs or records. ± gives the spread as reported.

| Structure (SMILES) | test | test system | setting | how to read | endpoint | value |
| --- | --- | --- | --- | --- | --- | --- |
| C=CC(=O)Nc1cc(Nc2nccc(-c3cn(C)c4ccccc34)n2)c(OC)cc1N(C)CCNC | storage stability | human dried blood spot | 2 h, -80 °C, LQC level | – | recovery | 104% |
| CC(C)(C)NCC(SS(=O)(=O)O)c1ccccc1 (centres unmarked) | – | Swiss Webster mice, Schistosoma mansoni-infected | 200 mg/kg single dose on day 42 post-infection, perfusion day 56 post-infection | reference: vehicle | body weight decrease | -8% |
| CCn1nc(Cl)c2c1-c1cnc(N)c(c1)O[C@H](C)c1cc(F)ccc1-c1nn(C)cc1C2 | – | Balb/c nude mouse, female, plasma | 0.2 mg/kg, single dose, 1 h | – | free plasma concentration | 1.63 nM |
| O=S(=O)(N[C@H]1CCO[C@@H](C2c3ccc(F)cc3CCc3cc(F)ccc32)C1)c1ccc(OC(F)(F)F)cc1 | – | mouse | oral, 30 mg/kg, 2 h | reference: brain over plasma | tissue/plasma ratio | 0.4 |
| Cc1noc(C)c1Cn1cc(N2C(=O)CN(Cc3cccc(OS(=O)(=O)O)c3)C2=O)cn1 | – | Sprague-Dawley rat, male | oral, 30 mg/kg of parent drug, 2 h | – | plasma concentration | 3320 ng/mL |
| COc1ccc2nc(NC(=O)c3ccc(C(N)c4ccccc4)cc3)sc2c1 (centres unmarked) | – | CD-1 mice, female, plasma | 10 mg/kg | – | AUC | 1150 ng·h/mL |
| Oc1ccc([C@@H]2Oc3ccc(O)cc3[C@@H]3CCC[C@@H]32)cc1 | – | C57BL/6 mice, male, plasma | oral, 10 mg/kg | – | oral bioavailability | 13.9% |
| C=C[C@]1(C)C[C@@H](OC(=O)CSc2ccc(NC(=O)c3ccco3)cc2)[C@]2(C)[C@H](C)CC[C@]3(CCC(=O)[C@H]32)[C@@H](C)[C@@H]1O | – | chickens | 40 to 80 mg/kg | – | %T>MIC | 100% |
| CCCCN1C(=O)c2cccc3c(NCCCCCCCCCCN4CCOCC4)ccc(c23)C1=O | – | ethyl acetate | – | – | fluorescence lifetime | 9.6 ns |
| COc1cccc(OC)c1-c1cc(C(=O)NC2(C(=O)O)C3CC4CC(C3)CC2C4)nn1-c1ccc(C(=O)N(C)CCOCCOCCN(C)C(=O)[C@H](CCCCNC(=O)[C@H](CC(C)C)NC(=O)C2OC2C(=O)O)NC(=O)CN2CCN(CC(=O)[O-])CCN(CC(=O)[O-])CCN(CC(=O)[O-])CC2)cc1C(C)C.[177Lu+3] (mixture of isomers) | – | mouse HT-29 xenograft | 24 h, biodistribution | reference: tumour over large intestine | tumour-to-large intestine ratio | 11.7 |
| C/C(N)=N/C(=N\S(=O)(=O)c1ccc(C(F)(F)F)cc1)N1C[C@H](c2ccccc2)C(c2ccc(Cl)cc2)=N1 | – | C57BL/6 mouse, liver | intravenous, 10 mg/kg | – | Cmax | 27700 ng/mL |
| Cc1nc(N)nc2c1C(=O)N[C@@H](c1ccc(F)cc1-c1cccc(O[11CH3])n1)C2 | ex vivo biodistribution | mice, U87 subcutaneous xenograft, pancreas | 60 min post-injection, baseline, vehicle pre-treatment | – | tracer uptake | 2.2 ± 0.3 %ID |
| [123I]c1ccc2nc(-c3ccc(-n4ccnn4)nc3)cn2c1 | – | male Wistar rat, blood | intravenous, 4 MBq, 14 h | – | tracer uptake | 0.015 %ID/g |
| CCCCC/C=C\CCCO[Si](CCCN(C)C)(OCCC/C=C\CCCCC)OCCC/C=C\CCCCC | – | – | pH 7.5, formulated | – | zeta potential | -0.11 mV |
| O=C(Nc1cnccc1-c1ccc([18F])cc1)c1ccnc(NC(=O)C2CC2)c1 | – | mice, transgenic, GSK-3β, early-stage, lung | intravenous, dose not given, 120 min, added: tariquidar 15 mg/kg i.v. pre-dose | – | SUV | 0.37 |
| CC(C(=O)O)n1nc(Cn2cc3cc(OCC[18F])c(Cl)cc3n2)c2ccccc2c1=O (racemic) | – | rat, lung | 30 min | – | tracer uptake | 0.33 %ID/g |
| CC[C@H](C)[C@H](NC(=O)[C@H](CCCCN)NC(C)=O)C(=O)N[C@@H](C)C(=O)N[C@@H](C)C(=O)N[C@@H](CC(C)C)C(=O)N[C@@H](CCCCN)C(=O)N[C@@H](CCC(=O)O)C(=O)N[C@@H](CCCCN)C(=O)N[C@H](C(=O)N[C@H]1CSCc2cccc(c2)CSC[C@@H](C(=O)N[C@@H](CCCCN)C(=O)N[C@H](C(=O)N[C@@H](C)C(=O)N[C@@H](C)C(=O)N[C@@H](CC(C)C)C(=O)N[C@@H](CCCCN)C(=O)N[C@@H](CCC(=O)O)C(=O)NCC(=O)N[C@@H](Cc2c[nH]c3ccccc23)C(N)=O)[C@@H](C)CC)NC(=O)[C@H](CCCCN)NC(=O)[C@H](CC(C)C)NC(=O)[C@H](C)NC1=O)[C@@H](C)CC | circular dichroism at 222 nm | PBS | pH 7.4, 20 °C, single peptide 50 µM total | – | helicity | 45% |
| COc1cccc(OC)c1-c1cc(C(=O)NC2(C(=O)O)C3CC4CC(C3)CC2C4)nn1-c1ccc(C(=O)N(C)CCCN(C)CCCN(C)C(=O)[C@H](CCCCNC(=O)[C@H](CC(C)C)NC(=O)C2OC2C(=O)O)NC(=O)CN2CCN(CC(=O)[O-])CCN(CC(=O)[O-])CCN(CC(=O)[O-])CC2)cc1C(C)C.[177Lu+3] (mixture of isomers) | – | mouse HT-29 xenograft | 24 h, biodistribution | reference: tumour over small intestine | tumour-to-small intestine ratio | 16.4 |

| Structure (SMILES) | test | test system | setting | how to read | endpoint | value |
| --- | --- | --- | --- | --- | --- | --- |
| CC(C)(O)c1ncc([S@](N)(=O)=NC(=O)Nc2c3c(cc4c2CCC4)CCC3)s1 | refers to: eye disorders | healthy human | oral, dose not given, all active doses pooled | – | subjects with TEAEs | 2% |
| C=CC(=O)Nc1cc(Nc2nccc(-c3c[nH]c4ccccc34)n2)c(OC)cc1N(C)CCN(C)C | storage stability | human plasma | 72 h, on ice, medium QC level | – | recovery | 69.2% |
| O=C(O)CCCOc1ccc([18F])cc1-c1cc(-c2ccccc2C(F)(F)F)n(-c2ccccc2)n1 | OLINDA/EXM from mouse data, refers to: Urinary bladder wall | human adult | – | – | absorbed dose | 10.5 µGy/MBq |
| C=CC[C@@H]1/C=C(\C)C[C@H](C)C[C@H](OC)[C@H]2O[C@@](O)(C(=O)C(=O)N3CCCC[C@H]3C(=O)O[C@H](/C(C)=C/[C@@H]3CC[C@@H](O)[C@H](OC)C3)[C@H](C)[C@@H](O)CC1=O)[C@H](C)C[C@@H]2OC | – | kidney transplant recipients, whole blood | oral, dose not given, early phase, limited sampling | – | dose-normalized AUC(0-12h) | 136 ng·h/mL |
| COc1ccc2c(c1)CN(C(=O)CCN1CCC(Cc3ccccc3)CC1)CCS2 | – | paroxysmal AF patients | oral, 540 mg, 24 h | reference: baseline | QTcF change | 35.8 ms |
| O=C([O-])CN1CCN(CC(=O)[O-])CCN(C(CO)C(O)CO)CCN(CC(=O)[O-])CC1.[Dy+3] (centres unmarked) | ICP-MS | cynomolgus monkey, feces | 3 days post-injection | reference: dose | cumulative fecal excretion | 0.3% |
| CC[C@H](C)[C@H](NC(=O)CNC(=O)[C@H](C)NC(=O)[C@H](CC(=O)O)NC(=O)[C@H](CO)NC(=O)[C@H](C)NC(=O)[C@H](CC(C)C)NC(=O)[C@H](CCCCN)NC(=O)[C@H](CCCCN)NC(=O)[C@H](CCSC)NC(=O)[C@H](CC(N)=O)NC(=O)[C@H](Cc1ccccc1)NC(=O)[C@H](CC(=O)O)NC(=O)[C@@H](N)CCSC)C(=O)N[C@@H](Cc1c[nH]c2ccccc12)C(=O)N[C@@H](Cc1ccccc1)C(=O)N[C@H](C(=O)N[C@@H](CCCNC(=N)N)C(=O)N[C@@H](C)C(=O)N[C@H](C(=O)N[C@@H](CCC(N)=O)C(=O)N[C@@H](Cc1ccccc1)C(=O)N[C@H](C(=O)N[C@@H](CCC(=O)O)C(=O)N[C@@H](CCC(=O)O)C(=O)N[C@@H](CCCCN)C(=O)N[C@@H](Cc1ccccc1)C(=O)NCC(=O)N[C@@H](CCC(N)=O)C(=O)N[C@@H](C)C(N)=O)[C@@H](C)O)C(C)C)[C@@H](C)O | circular dichroism | 25% DOPS/75% DOPC liposomes | 1 mM lipid | – | helical content | 12% |
| CC[C@H](C)[C@@H]1NC(=O)[C@H](Cc2ccc(O)cc2)NC(=O)CCCSC[C@@H](C(=O)N(CC(=O)N[C@@H](CC(C)C)C(=O)NCC(N)=O)Cc2ccc(F)cc2)NC(=O)[C@H](CC(N)=O)NC(=O)[C@H](CCC(N)=O)NC1=O | – | human | intranasal, 50 µg single dose | – | subjects with any TEAE | 33% |
| CCC(=O)N(C)c1ccc(Cl)c(Cl)c1 | LC-MS/MS | mouse C57BL/6 female, plasma | subcutaneous, 2 mg/kg, 0.083 h | – | plasma concentration | 246 ng/mL and 404 ng/mL |
| COc1cccc(OC)c1-c1cc(C(=O)NC2(C(=O)O)C3CC4CC(C3)CC2C4)nn1-c1ccc(C(=O)NCCNC(=O)[C@H](CCCCNC(=O)[C@H](CC(C)C)NC(=O)C2OC2C(=O)O)NC(=O)CN2CCN(CC(=O)[O-])CCN(CC(=O)[O-])CCN(CC(=O)[O-])CC2)cc1C(C)C.[177Lu+3] (mixture of isomers) | – | mouse, HT-29 xenograft | 72 h post injection, biodistribution | reference: tumour over lung uptake | tumour-to-lung ratio | 8.76 |
| COCCN(C)CC(=O)NC(Cc1ccc(-c2ccccc2)cc1)B(O)O (centres unmarked) | – | Caco-2 | – | – | Papp A→B | 18 ×10⁻⁶ cm/s |
| O=C(Nc1cnccc1-c1ccc([18F])nc1)c1ccnc(NC(=O)C2CC2)c1 | ex vivo gamma counting | FVB/NJ mice, both sexes, left kidney | intravenous, 120 min, added: tariquidar 15 mg/kg iv | – | mean SUV | 0.431 |
| CC(C)(C)C(=O)Nc1ccc2[nH]c(CN3CCC(N(CCCN4CCOCC4)CC4OC(n5cnc6c(N)ncnc65)C(O)C4O)CC3)nc2c1 (centres unmarked) | – | male Sprague-Dawley rat, plasma | intraperitoneal, 20 mg/kg, 1 h | – | concentration | 1100 ng/mL |
| C=C(NC(=O)c1csc(-c2nc3c(cc2O)-c2nc(cs2)C(=O)NC(C(C)O)C(=O)NC(=C(C)OC)c2nc(cs2)C(=O)NC2c4nc(cs4)C(=O)NC(COC(=O)c4c5c6c(cccc6n4O)COC(=O)C(OC4CC(C)(O)C(N(C)C)C(C)O4)C2OC5)c2nc-3cs2)n1)C(N)=O (centres unmarked) | – | cynomolgus monkey, both sexes, plasma | intravenous infusion, 1 mg/kg single dose | – | AUC(0-last) | 8260 ± 1080 ng·h/mL |
| CNCc1ccc(-c2cc(=O)c3ccc4[nH]c(C(F)(F)F)nc4c3o2)cc1 | – | ICR mice, plasma | oral, 5 mg/kg | – | AUC | 405 ng·h/mL |
| COc1cccc(OC)c1-c1cc(C(=O)NC2(C(=O)O)C3CC4CC(C3)CC2C4)nn1-c1ccc(C(=O)N(C)CCCN(C)C(=O)[C@H](CCCCNC(=O)[C@H](CC(C)C)NC(=O)C2OC2C(=O)O)NC(=O)CN2CCN(CC(=O)[O-])CCN(CC(=O)[O-])CCN(CC(=O)[O-])CC2)cc1C(C)C.[177Lu+3] (mixture of isomers) | – | mouse HT-29 xenograft | 72 h, biodistribution | reference: tumour over small intestine | tumour-to-small intestine ratio | 16.8 |
| C=CC(=O)Nc1cccc(Cn2ncc3cnc(Nc4cnn(CCOC)c4)nc32)c1 | – | human, both sexes, whole blood | 5 µM, 15 min | – | remaining compound | 94.5% |
